Measured values pooled from the literature.
Numbered parts are unrelated; each lists some results of a single study. Substitutions count along the parent as printed.

Block 1
Target: RNA binding protein fox-1 homolog 2, RRM domain, GST-SBP tag (RBFOX2, Homo sapiens, UniProt O43251-10, residues 100-194)
Method: RNA Bind-n-Seq
Form: RNA
Matrix: in vitro
Concentration: 365 nM
Notes: natural RNA segment, single round, ends assumed
Reference: no-protein control
Direction: higher = stronger binding
Constant ends, left off below: GGGAGUUCUACAGUCCGACGAUC … UGGAAUUCUCGGGUGCCAA
Target sequence (chain): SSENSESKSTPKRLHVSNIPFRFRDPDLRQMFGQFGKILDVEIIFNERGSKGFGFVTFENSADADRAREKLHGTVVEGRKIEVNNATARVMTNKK
`GUAAGCUUUUUUACUUUAUUAUCUCUAUAAUUUAUUAUCUCUAUCCAUAUUUGUGGAUCGGGUAGUGGGAAAAGAGAUUAUAAUACUUGUCUUUCUCUCCUCUCCCUCCA`: “RBNS enrichment (R)” 0.329.
Under “RBNS enrichment (R)”, `ACUGAGCGUAUUUGAAUUUUUUCAUGCAAUUUUUCUAGAGCAAUAAUCAGUGGUGCUUUUGUGCCUAGGUUUUAUGUGAUUUUAAUGAAAUAUGGAUAGUUGUGGCCACC` is recorded as 0.433.
Under “RBNS enrichment (R)”, `CCCUAGGUAGCUGGCUGUUUUGAUGAGGUCAUUUGAAUCAUGGGAGUGUCCUUACACUACACUAUCCUGAGCUGGUUGGGGUGGGUAGAAGAAGGCAAGGACUGCCUGAG` is recorded as 4.43.
For `GAGAGGCCAGAGGAUGCUCCCCAUGCUGCCACUAUUUAUUGUGAGCCCUGGAGGCUCCCAUGUGCUUGAGGAAGGCUGGUGAGCCCGGCUCAGGACCCUCUUCCCUCAGG`, “RBNS enrichment (R)” read 0.254.
Under “RBNS enrichment (R)”, `UUUAAGAUGCUUGUAAAUAUUAUUUAUGUUUUUAAUUUUGUAAAAUAAAGAUUGCUUUUUAACCAUUGGCAUGAAGUGUGGUCUUUGCUAGCUAGAAUCUGACUGACGUC` is recorded as 1.21.
For `UUUAAUCAAAAUUCAUAGUUGGAUCAGCCAUUGCCUUGUACAGGUUUAUUUUUUCCCCACAGACGCACACACCAACACAUUUAUAUUCAUUGCUUCCUCCCACUUUGUGC`, “RBNS enrichment (R)” read 2.42.
Under “RBNS enrichment (R)”, `CUUUUUUAGUUCUUAAAAAUUUAUUUUUAAGUUCUAAAAUAAAAUAAAAAUAAGUUCUUAAAAUUUAUUUUUUUCCUGAAUAAAUUGUAUUUGGUAAACUUCUGCCUACA` is recorded as 1.1.

Block 2
Target: CCNA2, cyclin fold, Cln2 fusion (human)
Method: yeast growth competition, sequencing
Matrix: yeast
Notes: weak parent motif
Reference: not given
Direction: higher = stronger binding
Starting sequence: MASTL docking peptide (human); PMIAKNLMCELDE
For `PMIAKNLWCELDE [M8W]`, “normalised enrichment score” read 0.171.
`PMIATNLMCELDE [K5T]` — result for “normalised enrichment score”: -0.453.
`PMIAMNLMCELDE [K5M]`: “normalised enrichment score” -0.313.
Under “normalised enrichment score”, `PMIAKNLMCEPDE [L11P]` is recorded as -0.32.

Block 3
Target: ABI1, truncated, D143A, DHFR fusion (Arabidopsis thaliana)
Method: DHFR PCA, deep sequencing
Matrix: yeast
Notes: methotrexate growth selection, single substitutions
Added: (+)-ABA 58 µM
Reference: wild-type fitted maximum
Direction: higher = stronger binding
Starting sequence: PYL1, truncated, DHFR fusion (Arabidopsis thaliana); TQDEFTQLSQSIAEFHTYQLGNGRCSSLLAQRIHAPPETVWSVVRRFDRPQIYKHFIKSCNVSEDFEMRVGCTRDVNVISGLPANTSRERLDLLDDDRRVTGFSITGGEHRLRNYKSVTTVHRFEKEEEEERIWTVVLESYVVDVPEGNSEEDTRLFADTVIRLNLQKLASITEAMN; partner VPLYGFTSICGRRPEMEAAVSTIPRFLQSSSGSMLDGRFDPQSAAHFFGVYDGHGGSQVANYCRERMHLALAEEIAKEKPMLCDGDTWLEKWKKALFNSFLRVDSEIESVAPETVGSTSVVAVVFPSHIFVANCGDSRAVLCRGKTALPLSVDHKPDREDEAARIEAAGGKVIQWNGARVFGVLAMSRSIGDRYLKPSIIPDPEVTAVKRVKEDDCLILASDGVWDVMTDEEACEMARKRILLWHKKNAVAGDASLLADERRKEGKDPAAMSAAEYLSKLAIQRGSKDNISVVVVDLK
`R155W`: “relative binding score” 15.7%.
`D65C`: “relative binding score” 80.7%.
Under “relative binding score”, `S27Q` is recorded as 73.6%.
Under “relative binding score”, `R132T` is recorded as 105%.
Under “relative binding score”, `R163C` is recorded as 49%.
`T119A`: “relative binding score” 23.6%.

Mixed results
`PhoQ, residues 284 288 289 292 302 303 TGYLSA` gave a fold induction of 7.28 (PhoP, residues 12 14 15 18 19 NQGLL (Escherichia coli, UniProt P23836); Sort-seq, refers to: YFP reporter; E. coli; PhoQ-PhoP variant library, added: 10 µM Mg2+; reference: high Mg2+ state, higher = stronger signaling).

For quick reference, copied from above (mixed results):
`PhoQ, residues 284 288 289 292 302 303 TGYLSA` gave a fold induction of 7.28 (PhoP, residues 12 14 15 18 19 NQGLL (Escherichia coli, UniProt P23836); Sort-seq, refers to: YFP reporter; E. coli; PhoQ-PhoP variant library, added: 10 µM Mg2+; reference: high Mg2+ state, higher = stronger signaling).
